Measurements gathered from unrelated publications.
Each line is one published result; not all experiments were run side by side. Numbers after ± are the reported error.

Structure (SMILES) | test | system | conditions | how to read | retention time [min]
C[C@H](NC(=O)[C@H](Cc1c[nH]c2ccccc12)NC(=O)[C@@H](N)CCCNC(=N)N)C(=O)N[C@@H](Cc1c[nH]c2ccccc12)C(=O)N[C@@H](CCCNC(=N)N)C(=O)N[C@@H](Cc1c[nH]c2ccccc12)C(=O)N[C@@H](CCC(N)=O)C(=O)N[C@@H](Cc1c[nH]c2ccccc12)C(=O)N[C@@H](CCCNC(=N)N)C(N)=O | RP-HPLC C18 | – | hydrophobicity measure | – | 6.4
CCCCCCCCCCCCCCCC(=O)N[C@H](C(=O)N[C@H](C(=O)N[C@H](C(=O)N[C@@H](C)C(=O)N[C@@H](C)C(=O)N[C@@H](C)C(=O)N[C@@H](CCCCN)C(=O)N[C@@H](CCCCN)C(=O)N[C@@H](CCCCN)C(N)=O)C(C)C)C(C)C)C(C)C | RP-HPLC C18 | – | – | – | 19.1
CC(C)C[C@@H]1NC(=O)[C@H](CCCCN)NC(=O)[C@H](C(C)C)NC(=O)[C@H](CCCCN)NC(=O)[C@@H]2CCCN2C(=O)[C@@H](Cc2ccc(O)cc2)NC(=O)[C@H](CCCCN)NC(=O)[C@H](CCCCN)NC(=O)[C@H](C(C)C)NC(=O)[C@@H]2CCCN2C(=O)[C@@H](Cc2ccc(O)cc2)NC1=O | RP-HPLC C8 | – | 70 °C, water/acetonitrile TFA gradient | – | 19.1
CC(=O)N[C@H](CCCCN)C(=O)N[C@H](CC(C)C)C(=O)N[C@H](CCCCN)C(=O)N[C@H](CO)C(=O)N[C@H](CC(C)C)C(=O)N[C@H](CC(C)C)C(=O)N[C@H](CCCCN)C(=O)N[C@@H](C(=O)N[C@H](CC(C)C)C(=O)N[C@H](CO)C(=O)N[C@H](CCCCN)C(=O)N[C@H](C)C(=O)N[C@H](CCCCN)C(=O)N[C@H](CCCCN)C(=O)N[C@H](CCCCN)C(=O)N[C@H](CCCCN)C(=O)N[C@H](CC(C)C)C(=O)N[C@H](CCCCN)C(=O)N[C@@H](C(=O)N[C@H](CC(C)C)C(=O)N[C@H](CC(C)C)C(=O)N[C@H](CCCCN)C(=O)N[C@H](C)C(=O)N[C@H](CC(C)C)C(=O)N[C@H](CO)C(=O)N[C@H](CCCCN)C(N)=O)[C@H](C)O)[C@H](C)O | RP-HPLC C8 | – | pH 2, hydrophobicity measure | – | 83.6
CC(C)C[C@@H]1NC(=O)[C@H](CCCCN)NC(=O)[C@H](C(C)C)NC(=O)[C@@H]2CCCN2C(=O)[C@@H](Cc2ccc(O)cc2)NC(=O)[C@H](CC(C)C)NC(=O)[C@H](CCCCN)NC(=O)[C@H](C(C)C)NC(=O)[C@H](CCCCN)NC(=O)[C@H](CC(C)C)NC(=O)[C@@H]2CCCN2C(=O)[C@@H](Cc2ccc(O)cc2)NC(=O)[C@H](C(C)C)NC(=O)[C@H](CCCCN)NC1=O | RP-HPLC C8 | – | 70 °C, water/acetonitrile TFA gradient | – | 30.9
CC(C)C[C@H](NC(=O)[C@@H]1CSCC(=O)N[C@H]2CCCCNC(=O)CSC[C@H](NC(=O)[C@H](CCCCN)NC2=O)C(=O)N[C@@H](CCCCN)C(=O)N[C@@H](CC(C)C)C(=O)N1)C(N)=O | analytical RP-HPLC | C18 column | 10.00 min gradient, 0.05% TFA | – | 2.44
CCCCCCCCCCCCCCCCCC(=O)N[C@@H](CCCN)C(=O)N[C@@H](CCCN)C(=O)N[C@@H](CCCN)C(=O)N[C@@H](CCCN)C(=O)N[C@@H](CCCN)C(N)=O | RP-HPLC C18 | – | – | – | 15.6
Cc1c(C)c(C)[c-](C)c1C.Fc1c[c-]c(-c2ccccn2)cc1.[Cl-].[Ir+3] | RP-HPLC | C18 column, water/acetonitrile | with: 50 mM NaCl | longer = more hydrophobic | 18.74 ± 0.05
CC(C)C[C@@H]1NC(=O)[C@H](CCCCN)NC(=O)[C@H](C(C)C)NC(=O)[C@@H]2CCCN2C(=O)[C@@H](Cc2ccc(O)cc2)NC(=O)[C@H](CC(C)C)NC(=O)[C@H](CCCCN)NC(=O)[C@H](C(C)C)NC(=O)[C@@H]2CCCN2C(=O)[C@@H](Cc2ccc(O)cc2)NC1=O | RP-HPLC C8 | – | 70 °C, water/acetonitrile TFA gradient | – | 30.3
CCCCCCCCCCCCCCCCCC(=O)N[C@H](C(=O)N[C@H](C(=O)N[C@H](C(=O)N[C@@H](CCCCN)C(=O)N[C@@H](CCCCN)C(=O)N[C@@H](CCCCN)C(=O)N[C@@H](CCCCN)C(=O)N[C@@H](CCCCN)C(N)=O)C(C)C)C(C)C)C(C)C | RP-HPLC C18 | – | – | – | 18.6
CC[C@H](C)[C@H](NC(=O)[C@H](CCCNC(=N)N)NC(=O)[C@H](CCCCN)NC(=O)[C@H](Cc1ccc(O)cc1)NC(=O)[C@H](CC(=O)O)NC(=O)[C@H](C)NC(=O)CNC(=O)CCOCCOCCOCCNC(=O)CN1CCN(CC(=O)O)CCN(CC(=O)O)CCN(CC(=O)O)CC1)C(=O)N[C@H](C(=O)N[C@H](C(=O)N[C@@H](CCCCN)C(=O)N[C@H](C(=O)N[C@@H](CC(N)=O)C(N)=O)C(C)C)C(C)C)[C@@H](C)O [copper-64 labelled] | radio-RP-HPLC | – | MeCN/water TFA gradient | longer means more hydrophobic | 7.48
N=C(N)NCCC[C@H](NC(=O)[C@H](Cc1c[nH]c2ccccc12)NC(=O)[C@H](CCC(N)=O)NC(=O)[C@H](Cc1c[nH]c2ccccc12)NC(=O)[C@H](CCCN)NC(=O)[C@H](Cc1c[nH]c2ccccc12)NC(=O)[C@H](CCC(N)=O)NC(=O)[C@H](Cc1c[nH]c2ccccc12)NC(=O)[C@@H](N)CCCNC(=N)N)C(N)=O | RP-HPLC, C18 column | – | water/acetonitrile gradient with TFA | – | 6.4
CC(C)C[C@@H]1NC(=O)[C@H](CCCCN)NC(=O)[C@H](C(C)C)NC(=O)[C@@H]2CCCN2C(=O)[C@@H](Cc2ccc(O)cc2)NC(=O)[C@H](CC(C)C)NC(=O)[C@H](CCCCN)NC(=O)[C@H](C(C)C)NC(=O)[C@H](CCCCN)NC(=O)[C@H](CC(C)C)NC(=O)[C@H](CCCCN)NC(=O)[C@@H]2CCCN2C(=O)[C@@H](Cc2ccc(O)cc2)NC(=O)[C@H](CCCCN)NC(=O)[C@H](C(C)C)NC(=O)[C@H](CCCCN)NC1=O | RP-HPLC C8 | – | 70 °C, water/acetonitrile TFA gradient | – | 22.8
CC(=O)N[C@H](CCCCN)C(=O)N[C@H](CC(C)C)C(=O)N[C@H](CCCCN)C(=O)N[C@H](CO)C(=O)N[C@H](CC(C)C)C(=O)N[C@H](CC(C)C)C(=O)N[C@H](CCCCN)C(=O)N[C@@H](C(=O)N[C@H](CC(C)C)C(=O)N[C@H](CO)C(=O)N[C@H](CCCCN)C(=O)N[C@H](C)C(=O)N[C@H](CCCCN)C(=O)N[C@H](CCCCN)C(=O)N[C@H](CCCCN)C(=O)N[C@H](CC(C)C)C(=O)N[C@H](CC(C)C)C(=O)N[C@H](CCCCN)C(=O)N[C@@H](C(=O)N[C@H](C)C(=O)N[C@H](CC(C)C)C(=O)N[C@H](CCCCN)C(=O)N[C@H](C)C(=O)N[C@H](CC(C)C)C(=O)N[C@H](CO)C(=O)N[C@H](CCCCN)C(N)=O)[C@H](C)O)[C@H](C)O | RP-HPLC C8 | – | pH 2, hydrophobicity measure | – | 93
CC(=O)N[C@@H](Cc1c[nH]c2ccccc12)C(=O)N[C@@H](CCCCN)C(=O)N[C@@H](Cc1ccccc1)C(=O)N[C@@H](CCC(=O)O)C(=O)N[C@@H](Cc1ccccc1)C(=O)N[C@@H](CCCCN)C(=O)N[C@@H](Cc1ccccc1)C(=O)N[C@@H](CCC(=O)O)C(N)=O | reverse-phase HPLC C18 | – | – | – | 12.7
CC(C)C[C@@H]1NC(=O)[C@H](CCCCN)NC(=O)[C@H](C(C)C)NC(=O)[C@@H]2CCCN2C(=O)[C@@H](Cc2ccc(O)cc2)NC(=O)[C@H](CC(C)C)NC(=O)[C@H](CCCCN)NC(=O)[C@H](C(C)C)NC(=O)[C@@H]2CCCN2C(=O)[C@@H](Cc2ccc(O)cc2)NC(=O)[C@H](CCCCN)NC1=O | RP-HPLC C8 | – | 70 °C, water/acetonitrile TFA gradient | – | 24.4
Cc1c(C)c(C)[c-](C)c1C.Cc1ccnc(-c2[c-]cccc2)c1.[Cl-].[Ir+3] | RP-HPLC | C18 column, water/acetonitrile | with: 50 mM NaCl | longer = more hydrophobic | 20.9

A few entries again:
Structure (SMILES) | test | system | conditions | how to read | retention time [min]
CC(C)C[C@@H]1NC(=O)[C@H](CCCCN)NC(=O)[C@H](C(C)C)NC(=O)[C@@H]2CCCN2C(=O)[C@@H](Cc2ccc(O)cc2)NC(=O)[C@H](CC(C)C)NC(=O)[C@H](CCCCN)NC(=O)[C@H](C(C)C)NC(=O)[C@H](CCCCN)NC(=O)[C@H](CC(C)C)NC(=O)[C@H](CCCCN)NC(=O)[C@@H]2CCCN2C(=O)[C@@H](Cc2ccc(O)cc2)NC(=O)[C@H](CCCCN)NC(=O)[C@H](C(C)C)NC(=O)[C@H](CCCCN)NC1=O | RP-HPLC C8 | – | 70 °C, water/acetonitrile TFA gradient | – | 22.8
CC(=O)N[C@H](CCCCN)C(=O)N[C@H](CC(C)C)C(=O)N[C@H](CCCCN)C(=O)N[C@H](CO)C(=O)N[C@H](CC(C)C)C(=O)N[C@H](CC(C)C)C(=O)N[C@H](CCCCN)C(=O)N[C@@H](C(=O)N[C@H](CC(C)C)C(=O)N[C@H](CO)C(=O)N[C@H](CCCCN)C(=O)N[C@H](C)C(=O)N[C@H](CCCCN)C(=O)N[C@H](CCCCN)C(=O)N[C@H](CCCCN)C(=O)N[C@H](CC(C)C)C(=O)N[C@H](CC(C)C)C(=O)N[C@H](CCCCN)C(=O)N[C@@H](C(=O)N[C@H](C)C(=O)N[C@H](CC(C)C)C(=O)N[C@H](CCCCN)C(=O)N[C@H](C)C(=O)N[C@H](CC(C)C)C(=O)N[C@H](CO)C(=O)N[C@H](CCCCN)C(N)=O)[C@H](C)O)[C@H](C)O | RP-HPLC C8 | – | pH 2, hydrophobicity measure | – | 93
CC(=O)N[C@@H](Cc1c[nH]c2ccccc12)C(=O)N[C@@H](CCCCN)C(=O)N[C@@H](Cc1ccccc1)C(=O)N[C@@H](CCC(=O)O)C(=O)N[C@@H](Cc1ccccc1)C(=O)N[C@@H](CCCCN)C(=O)N[C@@H](Cc1ccccc1)C(=O)N[C@@H](CCC(=O)O)C(N)=O | reverse-phase HPLC C18 | – | – | – | 12.7
